Published values pooled from the literature.
A part holds a random share of what one study measured. “And” joins repeats or separate records; there may be more than shown.

Sample 1
SMILES: CC(=O)N[C@@H](Cc1c[nH]c2ccccc12)C(=O)N[C@@H](CCC(=O)C=[N+]=[N-])C(=O)OC(C)C
host | route | dose | time | tumour volume
mice, MC-38 tumour rechallenge |  | 0.26 mg/kg | day 25 after injection | 0 mm3
mice, MC-38 tumour rechallenge |  | 0.26 mg/kg | day 43 after injection | 0 mm3
mice, MC-38 tumour rechallenge |  | 1 mg/kg | day 50 after injection | 0 mm3
mouse, EL4 tumour | subcutaneous | 0.1 mg/kg | day 11 | 584 mm3 and 738 mm3 and 692 mm3 and 653 mm3 and 1340 mm3 and 2040 mm3
mice, MC-38 tumour rechallenge |  | 0.26 mg/kg | day 60 after injection | 0 mm3
mice, MC-38 tumour rechallenge |  | 0.26 mg/kg | day 11 after injection | 0 mm3 and 4 mm3
mouse, EL4 tumour | subcutaneous | 0.1 mg/kg | day 14 | 148 mm3 and 830 mm3 and 2300 mm3 and 553 mm3 and 1230 mm3 and 614 mm3
mice, MC-38 tumour rechallenge |  | 1 mg/kg | day 53 after injection | 0 mm3

Sample 2
SMILES: c1ccc(Oc2ccc(Nc3c4c(nc5ccccc35)CCC4)cc2)cc1
Organism: Leishmania donovani
observed | technique | strain | medium | concentration | time | inhibition
parasite growth | high-content imaging | MHOM/IN/80/DD8 | amastigotes in THP-1 cells | 80 µM |  | 100%
parasite killing |  | DD8 | intracellular amastigotes | 8 µM | 48 h | 89% and 80% and 91%
parasite killing |  | DD8 | promastigotes | 0.33 µM | 48 h | 31% and 27% and 30%
parasite killing |  | DD8 | promastigotes | 6.66 µM | 72 h | 99% and 91% and 100%
parasite growth | high-content imaging | MHOM/IN/80/DD8 | amastigotes in THP-1 cells | 20 µM |  | 100%
parasite killing |  | DD8 | intracellular amastigotes | 2 µM | 72 h | 84% and 85%
parasite killing |  | DD8 | promastigotes | 1.66 µM | 72 h | 84% and 81%
parasite killing |  | DD8 | intracellular amastigotes | 0.08 µM | 24 h | 4% and 5%

Single results of other studies
SMILES | tested on | assay | system | conditions | scale | quantity | result
c1ccc2c(-c3nn4c(-c5ccncc5)nnc4s3)c[nH]c2c1 | healthy dermal fibroblasts | 4-MUP hydrolysis |  | 0.5 µM, added: without ISRIB | reference: DMSO without ISRIB | lysosomal acid lipase activity | 164% and 167% and 172% and 170%
CNC(=O)c1ccc(-c2cnn3ccc(C(=O)N(C)c4ccc(Cl)c(C(=O)OC)c4)cc23)cc1 |  |  | female C57BL/6 IFN-γ knockout mice, plasma | oral, 10 mg/kg |  | Cmax | 6.42 nM and 12.2 nM and 6.58 nM

Some of these lines once more (sample 2):
observed | technique | strain | medium | concentration | time | inhibition
parasite killing |  | DD8 | intracellular amastigotes | 0.08 µM | 24 h | 4% and 5%
